Measured values from different studies.
Protocols differ between the studies behind these lines. ± marks the error that the study gave.

Under “treatment-related adverse event incidence”, Cn1c(=O)oc2ccc(-c3ccc(CC(C#N)NC(=O)C4CNCCCO4)c(F)c3)cc21 (stereo not shown) is recorded as 0% (item: skin exfoliation; human volunteers; oral, 40 mg, single ascending dose fed).
O=C(NCCN1CCOCC1)c1cc2c3ccccc3n3c(=O)ccc(n1)c23: “water solubility ratio” ~6 fold (water; 2 h; relative to: compound over CO).
Under “tumour to tissue ratio”, CC(C)[C@H](NC(=O)[C@@H]1CCCN1C(=O)[C@H](CCCNC(=N)N)NC(=O)[C@H](CS)NC(=O)[C@H](Cc1c[nH]c2ccccc12)NC(=O)[C@H](CCCNC(=N)N)NC(=O)[C@@H](Cc1ccccc1)NC(=O)[C@H](Cc1c[nH]cn1)NC(=O)[C@H](CCC(=O)O)NC(=O)[C@H](CS)NC(=O)[C@H](CS)NC(=O)[C@@H]1CC(=O)N[C@@H](CCCNC(=N)N)C(=O)NCC(=O)N[C@@H](CC(=O)O)C(=O)N[C@H](Cc2ccc(O)cc2)C(=O)N1)C(N)=O [technetium-99m labelled] is recorded as 0.76 (C57 mouse, female, B16/F1 melanoma; intravenous, 0.037 MBq, 4 h; relative to: tumour over kidneys).
For CCCC[C@@H]1NC(=O)[C@@H](NC(=O)[C@H](CCC(=O)O)NC(=O)CNC(=O)CN2CCN(CC(=O)O)CCN(CC(=O)O)CCN(CC(=O)O)CC2)CCCCNC(=O)C[C@@H](C(N)=O)NC(=O)[C@H](C(C)C)NC(=O)[C@@H]2CCCN2C(=O)[C@H](CCCNC(=N)N)NC(=O)CNC(=O)[C@H](Cc2c[nH]c3ccccc23)NC(=O)[C@H](CCCNC(=N)N)NC(=O)[C@@H](Cc2ccccc2)NC(=O)[C@H](Cc2c[nH]cn2)NC(=O)[C@H](CCC(=O)O)NC1=O [gallium-67 labelled], the intestine uptake was 1.32 ± 0.73 %ID (normal C57 mice; intravenous, 0.037 MBq, 2 h).
For C[C@H](Oc1cc(-c2cnn(C3CCN(CC[18F])CC3)c2)cnc1N)c1c(Cl)ccc(F)c1Cl, the tracer uptake was 16.9 ± 5.5 %ID/cc (PET imaging; nude mouse, kidney; iv, 5 min post injection).
Under “phase solubility slope”, CC12N3Cc4c(OCCCS(=O)(=O)[O-])ccc(OCCCS(=O)(=O)[O-])c4CN1C(=O)N1CN4C(=O)N5Cc6c(OCCCS(=O)(=O)[O-])ccc(OCCCS(=O)(=O)[O-])c6CN6C(=O)N(CN(C3=O)C12C)C4(C)C65C.[Na+].[Na+].[Na+].[Na+] (stereo not shown) is recorded as 0.16 ± 0.0043 (pD 7.4, together with: camptothecin).
CC(C)(O)c1ncc([S@](N)(=O)=NC(=O)Nc2c3c(cc4c2CCC4)CCC3)s1 gave a Tmax of 0.76 to 3 h (healthy humans; oral, suspension, median range, all single doses).
COc1cc(NC(C)=O)c2c(c1O)-c1c(OC)c(OC)cc3c1C(C2)N(C)CC3 (stereo not shown) gave a remaining compound of 91.9 ± 1.1% (rat, processed plasma samples; 50 µg/mL, 24 h, room temperature, post-preparative storage).
CC(C)(C)c1ccc(O)c(C(=O)Nc2ccc(CN)cc2)c1 gave a t1/2 of 1.05 h (rat liver microsomes; 1 µM, together with: NADPH).
C=C(c1ccc(C(=O)O)c(F)c1)c1cc2c(cc1C)C(C)(C)C=CC2(C)C has an HDL level of 76 ± 12.8 mg/dL (Sprague-Dawley rat, male, plasma; oral, 100 mg/kg, 3 h, sesame oil vehicle).
For [11CH3]c1ccc2nc(C3CCC3)n(-c3ccc4[nH]ncc4c3)c2n1, the absorbed dose was 2.8 µSv/MBq (extrapolated from mouse biodistribution; human male, osteogenic cells).
COc1ccc(NC(=O)[C@H](CCCCN)NC(=O)c2cc(NC(=O)[C@H](CCCCN)NC(=O)c3cc(NC(=O)[C@H](CCCCN)NC(=O)c4cc(NC(C)=O)ccc4OC)ccc3OC)ccc2OC)cc1C(N)=O — result for “enthalpy of dissociation”: 15.6 kcal/mol (ITC heats of dilution; TBS; pH 7.4, 25 °C, hexamer to monomer).
COC(=O)c1ccc2c(c1)NC(=O)/C2=C(\Nc1ccc2c(c1)CCN2C(=O)CN1CCOCC1)c1ccccc1 gave an AUC(0-t) of 1010 ng·h/mL (beagle dog, plasma; intravenous, 2 mg/kg).
For N=C(N)NCCC[C@@H]1NC(=O)[C@H](Cc2c[nH]c3ccccc23)NC(=O)[C@@H](CC2CCCCC2)NC(=O)[C@@H]2CCCN2C(=O)[C@@H](NC(=O)CCc2ccccc2)CCCNC1=O, “alpha rate constant” read 3.45 h⁻¹ (two-compartment model; C57BL/6J mice, brain; intraperitoneal, 1 mg/kg).
Cc1nc(N[C@@H](C)c2ccc(-c3nc(C4CC4)no3)cc2)c2cc(C)oc2n1 gave an unbound fraction of 0.0003 (human, plasma).
For CO[C@H]1/C=C/O[C@@]2(C)Oc3c(C)c(O)c4c(c3C2=O)C2=NC3(CCN(CC(C)C)CC3)NC2=C(NC(=O)/C(C)=C\C=C\[C@H](C)[C@H](O)[C@@H](C)[C@@H](O)[C@@H](C)[C@H](OC(=O)c2cccnc2)[C@@H]1C)C4=O, the t1/2 was 6.8 h (CD-1 mouse; 10 mg/kg, single dose).
The terminal half-life of NS(=O)(=O)c1ccc(N2N=C(C(F)(F)F)CC2c2ccc(F)cc2F)cc1 (stereo not shown) is reported as 33.6 h (population PK model; Beagle dog, plasma; oral).
With C[C@]12CC[C@@H]3c4ccc(OCC(=O)N[C@@H](CCCCNC(=O)CN5CCN(CC(=O)[O-])CCN(CC(=O)[O-])CCN(CC(=O)[O-])CC5)C(=O)O)cc4CC[C@H]3[C@@H]1CCC2=O.[68Ga+3] the radioactivity uptake was 3.18 ± 0.76 %ID/g (female nude mice, MCF7 xenograft, MCF7 tumour; dose not given, 45 min post-injection).
With Cc1nc(C)c(C=[N+]([O-])C(C)(C)C)nc1C the Cmin was 77 ng/mL (healthy human, both sexes, serum; oral, 600 mg twice daily, 7 days).
Oc1cc2nc(c1)CNCc1cc(O)cc(n1)CNC2 has a compound remaining of 77% (mouse liver microsomes; 2 µM, time not given).
C#CCOc1ccc(/C=C2\SC(=O)N(CC(=O)NCc3ccccc3)C2=O)cc1 — result for “Kirkwood-Buff integral G2,3”: -368 cm³/mol (inverse Kirkwood-Buff integrals; binary solvent mixture; 298.15 K, mole fraction x1 0.45).
For CC(=O)N([O-])CCCCCNC(=O)CCC(=O)N([O-])CCCCCNC(=O)CCC(=O)N([O-])CCCCCN.[89Zr+4], the intact complex was 69.9 ± 1.5% (radio-iTLC; aqueous buffer; 3 h, pH 5.5, 37 °C, EDTA challenge, together with: 100-fold excess EDTA).
The plasma concentration of CCCC[C@H](NC(C)=O)C(=O)N[C@H]1CC(=O)NCCCC[C@@H](C(=O)N[C@@H](C(=O)N2CCC[C@@H]2C(N)=O)C(C)C)NC(=O)[C@H](Cc2c[nH]c3ccccc23)NC(=O)[C@H](CCCN=C(N)N)NC(=O)[C@@H](Cc2ccc3ccccc3c2)NC(=O)[C@@H]2CCCN2C1=O is reported as 1230 ± 300 ng/mL (dog, cachectic, plasma; subcutaneous, 0.75 mg/kg, day 1, 4 h post-dose).
For CCC/C(=C\C1=C(C(F)(F)F)C(=O)c2ccccc2C1=O)C(=O)N(CC)CC, the CLint scaled was 5.9 mL/min/kg (human liver S9; 1 µM, pH 7.4, metabolism).
Under radioactivity concentration, N=C(N)NCCC[C@@H]1NC(=O)[C@H](CCCCNC(=O)CC[C@H](NC(=O)CC[C@H](NC(=O)CN2CCN(CC(=O)O)CCN(CC(=O)O)CCN(CC(=O)O)CC2)C(=O)N[C@@H](CCC(=O)NCCCC[C@@H]2NC(=O)[C@@H](Cc3ccccc3)NC(=O)[C@H](CC(=O)O)NC(=O)CNC(=O)[C@H](CCCNC(=N)N)NC2=O)C(=O)NCCCC[C@@H]2NC(=O)[C@@H](Cc3ccccc3)NC(=O)[C@H](CC(=O)O)NC(=O)CNC(=O)[C@H](CCCNC(=N)N)NC2=O)C(=O)NCCCC[C@@H]2NC(=O)[C@@H](Cc3ccccc3)NC(=O)[C@H](CC(=O)O)NC(=O)CNC(=O)[C@H](CCCNC(=N)N)NC2=O)NC(=O)[C@@H](Cc2ccccc2)NC(=O)[C@H](CC(=O)O)NC(=O)CNC1=O [indium-111 labelled] is recorded as “decreased” (female BALB/c nude mice, SK-RC-52 xenograft, tumour; 0.5 µg, 2 h post injection, together with: excess unlabelled DOTA-E-[c(RGDfK)]2 50 µg).
With C[C@]12C[C@H](c3ccc(-c4ccc(C(=O)O)cc4)cc3)C3=C4CCC(=O)C=C4CC[C@H]3[C@@H]1CC[C@@]2(O)C(F)(F)C(F)(F)F the unbound fraction was 0.006 (human, plasma).
The blood concentration of O=C([O][Ti+2][O]C(=O)c1ccc(P(c2ccccc2)c2ccccc2)cc1)c1ccc(P(c2ccccc2)c2ccccc2)cc1.[Cl][Au].[Cl][Au].c1cc[cH-]c1.c1cc[cH-]c1 is reported as 24100 ± 2600 ng/mL (ICP-MS, item: gold; NOD.CB17-Prkdc scid/J mice, blood; 7.5 mg/kg every 48 h, 6 h after last dose).
The compound remaining of CCC1CC2C(C)=CC3C(=O)CCCC3C=CC(C)=CC2C(=O)O1 (stereo not shown) is reported as 6.15% (metabolic stability; mouse, liver microsomes; 1 µM, 30 min, pH 7.4).

Excerpt of the above:
The terminal half-life of NS(=O)(=O)c1ccc(N2N=C(C(F)(F)F)CC2c2ccc(F)cc2F)cc1 (stereo not shown) is reported as 33.6 h (population PK model; Beagle dog, plasma; oral).
COc1ccc(NC(=O)[C@H](CCCCN)NC(=O)c2cc(NC(=O)[C@H](CCCCN)NC(=O)c3cc(NC(=O)[C@H](CCCCN)NC(=O)c4cc(NC(C)=O)ccc4OC)ccc3OC)ccc2OC)cc1C(N)=O — result for “enthalpy of dissociation”: 15.6 kcal/mol (ITC heats of dilution; TBS; pH 7.4, 25 °C, hexamer to monomer).
